Results gathered from unrelated publications.
A part holds a random share of what one study measured.
Sequence of UniProt P46098 (whole entry, looked up): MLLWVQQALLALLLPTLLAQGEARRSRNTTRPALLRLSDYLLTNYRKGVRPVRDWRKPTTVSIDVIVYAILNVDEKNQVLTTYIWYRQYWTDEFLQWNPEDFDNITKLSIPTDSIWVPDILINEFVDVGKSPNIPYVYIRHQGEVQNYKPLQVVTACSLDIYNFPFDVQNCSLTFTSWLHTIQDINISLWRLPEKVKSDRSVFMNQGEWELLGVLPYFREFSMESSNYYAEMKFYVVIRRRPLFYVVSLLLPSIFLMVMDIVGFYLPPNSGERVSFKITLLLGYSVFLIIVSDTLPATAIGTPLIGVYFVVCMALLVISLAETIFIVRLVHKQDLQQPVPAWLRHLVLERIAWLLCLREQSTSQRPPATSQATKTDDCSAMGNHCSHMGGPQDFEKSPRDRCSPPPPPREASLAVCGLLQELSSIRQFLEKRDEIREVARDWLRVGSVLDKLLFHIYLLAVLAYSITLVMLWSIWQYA

Series 1
Species: human
Sample: microsomes or S9
Concentration: 2 µM
Time: 0.5 h
The remaining compound of `O=C(Cn1cc(C(=O)N2CCN(C3CCCC3)CC2)ccc1=O)Nc1nccs1` is reported as 92%.
`c1ccc(-c2nnc(CNCCN3CCOCC3)o2)cc1` gave a remaining compound of 95.9%.
`COc1cc(Cl)c(C)cc1NC(=O)Cn1ncc2c(N3CCN(c4ccccn4)CC3)ncnc21` has a remaining compound of 36.1%.
With `CC(NC(=O)c1cn(C)nc1-c1ccc2c(c1)OCCCO2)c1ccc(-n2cncn2)cc1` (centres unmarked) the remaining compound was 98.5%.
With `CC1(COc2ccccc2)CC(n2ccnc2)C(c2ccc(-c3ccccc3)cc2)=NO1` (centres unmarked) the remaining compound was 65.9%.

Series 2
Technique: PRP chromatography
Notes: linear fit, 1 mL
The logD 1,9-decadiene/water of `CC(C)C[C@@H]1NC(=O)[C@H](CCC(=O)N2CCCC2)NC(=O)[C@H](CC(C)C)NC(=O)[C@@H](CCC(=O)N2CCCC2)NC(=O)[C@H](CC(C)C)NC(=O)[C@@H](CC(C)C)NC(=O)[C@H](CC(C)C)NC1=O` is reported as -0.358 log units.
`CC(C)C[C@@H]1NC(=O)[C@H](C)NC(=O)[C@@H](CC(C)C)NC(=O)[C@H](C)NC(=O)[C@H](CC(C)C)NC(=O)[C@H](CC(C)C)NC(=O)[C@H](CC(C)C)NC1=O` has a logD 1,9-decadiene/water of -0.291 log units.
`CC(C)C[C@@H]1NC(=O)[C@@H](C)NC(=O)[C@H](CCC(=O)N2CCCC2)NC(=O)[C@@H](C(C)C)NC(=O)[C@H](C)NC(=O)[C@H](CC(C)C)NC(=O)[C@@H](CC(C)C)NC1=O` gave a logD 1,9-decadiene/water of -4.39 log units.
`CC(C)C[C@@H]1NC(=O)[C@H](CC(C)C)NC(=O)[C@@H](CC(C)C)NC(=O)[C@H](C)NC(=O)[C@H](C(C)C)NC(=O)[C@H](C)NC(=O)[C@H](C)NC1=O` has a logD 1,9-decadiene/water of -2.15 log units.
For `CC(C)C[C@@H]1NC(=O)[C@H](C(C)C)NC(=O)[C@H](CC(C)C)NC(=O)[C@@H](CC(C)C)NC(=O)[C@H](CC(C)C)NC(=O)[C@H](C(C)C)NC(=O)[C@H](Cc2cscn2)NC1=O`, the logD 1,9-decadiene/water was -0.355 log units.

Series 3
Organism: Sarcocystis neurona
Effect on: parasite growth
Concentration: 10 µM
Notes: secondary screen
The inhibition of `O=c1c(-c2ccccc2)c1-c1ccccc1` is reported as 85.4%.
With `COc1cc(NC(C)CCCN)c2ncccc2c1` (centres unmarked) the inhibition was 99%.
`NNC(=O)c1ccncc1` has an inhibition of -26.7%.

Mixed results
The inhibition of `O=C1CCc2cc(Nc3cc(OC4CCOCC4)c([N+](=O)[O-])cc3Cl)ccc2N1` is reported as 4.05% (5-hydroxytryptamine receptor 3A (HTR3A, Homo sapiens, UniProt P46098); binding, radioligand binding; 10 µM).

A few entries again (series 1):
`c1ccc(-c2nnc(CNCCN3CCOCC3)o2)cc1` gave a remaining compound of 95.9%.
`COc1cc(Cl)c(C)cc1NC(=O)Cn1ncc2c(N3CCN(c4ccccn4)CC3)ncnc21` has a remaining compound of 36.1%.
